Published values from different studies.
A part holds a random share of what one study measured. Positions count from the first letter of the parent shown.

Series 1 — target: CCND1, cyclin fold, Cln2 fusion (human); method: yeast growth competition, sequencing; sample: yeast; setting: weak parent motif; baseline: not given; reading: higher = stronger binding
Starting sequence: FOXM1 docking peptide (human); PHLARPIKVESPP
For `P13A`, “normalised enrichment score” read 0.785.
`L3A`: “normalised enrichment score” 0.447.
`I7A` — result for “normalised enrichment score”: 0.186.
`P1A` — result for “normalised enrichment score”: 0.43.
For `S11A`, “normalised enrichment score” read 0.49.
`V9A`: “normalised enrichment score” 0.117.

Series 2 — method: DHFR PCA, deep sequencing; sample: yeast; with: (+)-ABA 4.8 µM; baseline: wild-type fitted maximum; reading: higher = stronger binding
Target: ABI1, truncated, D143A, DHFR fusion (Arabidopsis thaliana)
Setting: methotrexate growth selection, single substitutions
Starting sequence: PYL1, truncated, DHFR fusion (Arabidopsis thaliana); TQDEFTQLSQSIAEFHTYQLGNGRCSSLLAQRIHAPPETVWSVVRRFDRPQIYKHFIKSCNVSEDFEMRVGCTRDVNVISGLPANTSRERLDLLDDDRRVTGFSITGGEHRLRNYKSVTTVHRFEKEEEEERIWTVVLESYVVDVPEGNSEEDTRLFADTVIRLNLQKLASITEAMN; partner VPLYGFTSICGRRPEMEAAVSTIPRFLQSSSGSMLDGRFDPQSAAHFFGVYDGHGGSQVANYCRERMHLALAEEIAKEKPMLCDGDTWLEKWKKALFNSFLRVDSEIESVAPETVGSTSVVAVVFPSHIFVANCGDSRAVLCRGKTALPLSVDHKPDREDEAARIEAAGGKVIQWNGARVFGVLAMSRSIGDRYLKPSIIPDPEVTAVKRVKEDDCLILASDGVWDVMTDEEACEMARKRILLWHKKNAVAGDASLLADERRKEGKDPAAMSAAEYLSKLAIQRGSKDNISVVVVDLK
Under “relative binding score”, `R74E` is recorded as 0.0808%.
Under “relative binding score”, `N177L` is recorded as 62%.
`R90S` — result for “relative binding score”: 19.1%.
For `S11T`, “relative binding score” read 70%.
Under “relative binding score”, `E89Q` is recorded as 0.804%.
`V76G` — result for “relative binding score”: 2.07%.
Under “relative binding score”, `A84C` is recorded as 36.5%.
`R69I`: “relative binding score” 69.1%.
`V76C` — result for “relative binding score”: 54.2%.
For `S80N`, “relative binding score” read 31.1%.
For `D97H`, “relative binding score” read 64.6%.
For `V62W`, “relative binding score” read 1.99%.
For `I172S`, “relative binding score” read -10.1%.
For `D153M`, “relative binding score” read -13.3%.
`N22P`: “relative binding score” 80.1%.
For `R90P`, “relative binding score” read 8.03%.
Under “relative binding score”, `K126A` is recorded as 89.8%.
For `S42F`, “relative binding score” read 8.73%.
`V76W` — result for “relative binding score”: -1.17%.

Series 3 — target: JUND, bZIP domain (human); method: DHFR protein complementation; sample: yeast; baseline: wild-type JUN-FOS pair; reading: higher = stronger binding
Setting: single substitutions, most at no-binding floor
Starting sequence: JUN, bZIP domain (human); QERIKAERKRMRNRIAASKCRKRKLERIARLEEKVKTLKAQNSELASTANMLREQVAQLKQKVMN; partner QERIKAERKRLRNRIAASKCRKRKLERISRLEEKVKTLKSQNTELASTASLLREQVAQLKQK
`R30W` gave a binding fitness of -0.777 natural log.
For `A46L`, the binding fitness was -0.548 natural log.
`S43N` gave a binding fitness of -0.65 natural log.
With `T37R` the binding fitness was -0.675 natural log.
The binding fitness of `A29M` is reported as -1.07 natural log.
The binding fitness of `T48V` is reported as -0.637 natural log.
For `A46N`, the binding fitness was -0.621 natural log.
`E32L` gave a binding fitness of -0.973 natural log.
For `E54K`, the binding fitness was -0.922 natural log.
`M51F` has a binding fitness of -0.77 natural log.
The binding fitness of `T37N` is reported as -0.596 natural log.
With `K34V` the binding fitness was -0.578 natural log.
With `A40W` the binding fitness was -1.11 natural log.
With `Q41E` the binding fitness was -0.559 natural log.
The binding fitness of `E54D` is reported as -0.922 natural log.
For `Q55R`, the binding fitness was -1.12 natural log.
`A40F` has a binding fitness of -0.992 natural log.
The binding fitness of `S47Y` is reported as -0.76 natural log.
The binding fitness of `T37K` is reported as -0.632 natural log.
The binding fitness of `K39T` is reported as -0.378 natural log.
With `L45M` the binding fitness was -1.13 natural log.
`M51L` gave a binding fitness of -0.621 natural log.
For `S43W`, the binding fitness was -0.996 natural log.
The binding fitness of `A40N` is reported as -0.895 natural log.
`R30K` has a binding fitness of -0.72 natural log.

Series 4 — method: RNA Bind-n-Seq; molecule type: RNA; sample: in vitro; concentration: 20 nM; setting: 6-mer, flanks averaged, single round; with: 150 mM LiCl; baseline: input library; reading: higher = stronger binding
Target: TAR DNA-binding protein 43, full length, His tag (TARDBP, Homo sapiens, UniProt Q13148, residues 1-414)
For `UUCAUA`, “6-mer enrichment (R)” read 0.895.
Under “6-mer enrichment (R)”, `UGACGU` is recorded as 0.946.
Under “6-mer enrichment (R)”, `UCCUGG` is recorded as 0.918.
`UAGGGU` — result for “6-mer enrichment (R)”: 1.11.
`AAAAAG` — result for “6-mer enrichment (R)”: 0.888.
Under “6-mer enrichment (R)”, `CAAGAA` is recorded as 0.885.
`UAUCGU`: “6-mer enrichment (R)” 0.957.
Under “6-mer enrichment (R)”, `GACGAC` is recorded as 0.834.
Under “6-mer enrichment (R)”, `GAAUGG` is recorded as 1.33.
`UUCAUC` — result for “6-mer enrichment (R)”: 0.855.
`GUGGGG` — result for “6-mer enrichment (R)”: 1.64.
`GUGGGA`: “6-mer enrichment (R)” 1.28.
`AACCCA`: “6-mer enrichment (R)” 0.893.
`ACCACU`: “6-mer enrichment (R)” 0.905.
Under “6-mer enrichment (R)”, `UAAGCC` is recorded as 0.896.
Under “6-mer enrichment (R)”, `GAUAAA` is recorded as 0.88.
Under “6-mer enrichment (R)”, `AGAAAC` is recorded as 0.791.

Excerpt of the above (series 3):
For `A46L`, the binding fitness was -0.548 natural log.
`S43N` gave a binding fitness of -0.65 natural log.
With `T37R` the binding fitness was -0.675 natural log.
The binding fitness of `A29M` is reported as -1.07 natural log.
The binding fitness of `T48V` is reported as -0.637 natural log.
For `A46N`, the binding fitness was -0.621 natural log.
`E32L` gave a binding fitness of -0.973 natural log.
